Measured values pooled from the literature.
Compare with care: the assays were run in different laboratories. Values joined by “and” are separate records of one study, mostly repeats; a detail may differ. ± marks the error that the study gave.
UniProt P08603, sequence (whole entry, unmodified, looked up): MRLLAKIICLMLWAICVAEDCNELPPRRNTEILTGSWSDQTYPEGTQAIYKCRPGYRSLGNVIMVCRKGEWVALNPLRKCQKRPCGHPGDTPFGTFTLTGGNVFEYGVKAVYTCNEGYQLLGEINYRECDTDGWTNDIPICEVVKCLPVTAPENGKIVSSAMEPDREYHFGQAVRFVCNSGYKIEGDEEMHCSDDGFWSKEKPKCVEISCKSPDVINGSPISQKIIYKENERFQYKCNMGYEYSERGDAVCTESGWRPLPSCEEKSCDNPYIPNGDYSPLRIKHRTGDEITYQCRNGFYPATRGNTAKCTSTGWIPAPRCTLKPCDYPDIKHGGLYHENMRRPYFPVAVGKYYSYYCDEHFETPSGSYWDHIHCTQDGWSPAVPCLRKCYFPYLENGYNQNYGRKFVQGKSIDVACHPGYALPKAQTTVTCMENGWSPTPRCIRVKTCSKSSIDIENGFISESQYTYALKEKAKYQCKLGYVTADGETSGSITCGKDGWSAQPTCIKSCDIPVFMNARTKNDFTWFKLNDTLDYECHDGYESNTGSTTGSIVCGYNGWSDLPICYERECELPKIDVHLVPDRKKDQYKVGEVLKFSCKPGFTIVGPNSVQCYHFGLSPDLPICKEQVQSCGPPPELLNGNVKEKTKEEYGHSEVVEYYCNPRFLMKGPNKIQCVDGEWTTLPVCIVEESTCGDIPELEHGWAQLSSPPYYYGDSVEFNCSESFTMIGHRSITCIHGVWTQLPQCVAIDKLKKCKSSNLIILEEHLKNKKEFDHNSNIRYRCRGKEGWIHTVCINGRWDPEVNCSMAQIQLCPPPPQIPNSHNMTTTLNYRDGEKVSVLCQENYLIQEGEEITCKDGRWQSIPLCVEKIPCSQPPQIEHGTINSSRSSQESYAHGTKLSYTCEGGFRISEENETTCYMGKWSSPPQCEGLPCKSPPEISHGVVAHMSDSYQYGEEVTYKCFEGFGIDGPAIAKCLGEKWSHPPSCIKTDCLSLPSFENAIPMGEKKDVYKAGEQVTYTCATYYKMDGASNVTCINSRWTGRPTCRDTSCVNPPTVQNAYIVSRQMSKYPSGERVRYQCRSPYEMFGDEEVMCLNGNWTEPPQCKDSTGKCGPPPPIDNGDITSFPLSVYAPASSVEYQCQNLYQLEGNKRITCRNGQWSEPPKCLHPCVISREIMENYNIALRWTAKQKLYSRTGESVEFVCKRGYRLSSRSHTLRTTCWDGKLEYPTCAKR

TTTATAAAAAACCAATATATGTCTTGACACATGTAAAAAACGTTGTATAATG (dsDNA) — binding (niaR 1-174 K16A (Streptococcus mutans, UniProt Q8DVX8); EMSA; double-stranded DNA, one strand shown): binds
COc1ncc(-c2cn([C@@H]3O[C@](F)(COC(=O)C(C)C)[C@@H](OC(=O)C(C)C)[C@H]3OC(=O)C(C)C)cn2)cn1 — IC50 (Zaire ebolavirus; viral replication, reporter virus; Huh-7; 72 h): > 100 µM
GTCTTTAATAATTAAACTAGTGTCTTGACAGATGTAAACAACAGGTATAAAC (dsDNA) — binding (niaR 1-174 T112A (Streptococcus mutans, UniProt Q8DVX8); EMSA; double-stranded DNA, one strand shown): binds
CC[C@@]1(O)C(=O)OCc2c1cc1n(c2=O)Cc2cc3cc(O)ccc3nc2-1 — inhibition (MERS-CoV spike VSV pseudovirus; pseudovirus entry; 10 µM): 39%
cbpA fragment (Streptococcus pneumoniae) — Kd (CFH 508-567 E523A (Homo sapiens, UniProt P08603); ITC): 0.047 ± 0.004 µM
COc1cc2ncnc(Nc3cccc(Cl)c3)c2cc1OC — infection (Monkeypox virus; viral infection; replication-deficient; 0.046 µM; relative to: untreated): 99.7% and 100% and 108%
COc1ncncc1-c1cn([C@@H]2O[C@](F)(CO)[C@@H](O)[C@H]2O)cn1 — IC50 (Zaire ebolavirus; viral replication, reporter virus; Huh-7; 72 h): 35.1 µM
O=c1ccn([C@@H]2O[C@](F)(CO)[C@@H](O)[C@H]2O)c(=O)[nH]1 — EC50 (Mammarenavirus lassaense; viral replication; HeLa, clade II): 4.4 µM
